Measured values of several laboratories.
Each numbered part is a random draw from the data of one study; scales do not carry over between parts. Several values in a cell are separate wells, animals, samples, runs or records.
UniProt Q9UKE5, sequence (whole entry, looked up): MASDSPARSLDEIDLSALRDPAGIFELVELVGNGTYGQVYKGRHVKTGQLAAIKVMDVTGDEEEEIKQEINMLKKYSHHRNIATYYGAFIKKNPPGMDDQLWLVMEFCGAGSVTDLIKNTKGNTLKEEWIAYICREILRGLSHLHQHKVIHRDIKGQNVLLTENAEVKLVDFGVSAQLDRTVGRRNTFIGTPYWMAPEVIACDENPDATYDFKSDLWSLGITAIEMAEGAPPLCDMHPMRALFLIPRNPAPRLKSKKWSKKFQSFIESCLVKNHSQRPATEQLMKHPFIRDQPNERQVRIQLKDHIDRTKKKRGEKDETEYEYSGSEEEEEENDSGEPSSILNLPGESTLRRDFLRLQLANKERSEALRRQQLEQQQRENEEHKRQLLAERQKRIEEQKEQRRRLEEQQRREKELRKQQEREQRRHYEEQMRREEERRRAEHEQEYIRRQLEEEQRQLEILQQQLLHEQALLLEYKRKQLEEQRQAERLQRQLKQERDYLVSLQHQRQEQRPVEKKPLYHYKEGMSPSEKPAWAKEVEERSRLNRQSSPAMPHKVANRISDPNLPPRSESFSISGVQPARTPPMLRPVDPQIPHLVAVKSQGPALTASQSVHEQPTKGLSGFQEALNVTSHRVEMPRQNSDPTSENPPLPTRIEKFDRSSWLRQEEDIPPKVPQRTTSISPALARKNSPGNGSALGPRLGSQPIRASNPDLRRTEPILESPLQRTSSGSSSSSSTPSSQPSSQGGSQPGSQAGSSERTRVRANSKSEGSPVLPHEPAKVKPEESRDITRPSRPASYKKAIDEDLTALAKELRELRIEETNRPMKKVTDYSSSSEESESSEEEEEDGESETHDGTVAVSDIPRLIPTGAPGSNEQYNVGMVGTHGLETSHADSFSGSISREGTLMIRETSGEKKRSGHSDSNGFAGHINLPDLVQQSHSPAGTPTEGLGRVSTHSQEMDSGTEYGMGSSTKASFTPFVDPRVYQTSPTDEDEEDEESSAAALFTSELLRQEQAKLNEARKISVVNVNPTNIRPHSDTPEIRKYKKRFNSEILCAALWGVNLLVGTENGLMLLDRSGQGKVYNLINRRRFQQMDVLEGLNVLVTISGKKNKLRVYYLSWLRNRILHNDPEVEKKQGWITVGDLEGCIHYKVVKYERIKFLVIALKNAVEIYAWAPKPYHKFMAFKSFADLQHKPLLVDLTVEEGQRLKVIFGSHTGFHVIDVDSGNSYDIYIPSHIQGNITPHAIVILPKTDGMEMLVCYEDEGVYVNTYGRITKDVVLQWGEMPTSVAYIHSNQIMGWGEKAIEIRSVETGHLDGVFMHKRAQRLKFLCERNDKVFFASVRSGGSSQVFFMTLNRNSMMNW
UniProt O60307, sequence (whole entry, looked up): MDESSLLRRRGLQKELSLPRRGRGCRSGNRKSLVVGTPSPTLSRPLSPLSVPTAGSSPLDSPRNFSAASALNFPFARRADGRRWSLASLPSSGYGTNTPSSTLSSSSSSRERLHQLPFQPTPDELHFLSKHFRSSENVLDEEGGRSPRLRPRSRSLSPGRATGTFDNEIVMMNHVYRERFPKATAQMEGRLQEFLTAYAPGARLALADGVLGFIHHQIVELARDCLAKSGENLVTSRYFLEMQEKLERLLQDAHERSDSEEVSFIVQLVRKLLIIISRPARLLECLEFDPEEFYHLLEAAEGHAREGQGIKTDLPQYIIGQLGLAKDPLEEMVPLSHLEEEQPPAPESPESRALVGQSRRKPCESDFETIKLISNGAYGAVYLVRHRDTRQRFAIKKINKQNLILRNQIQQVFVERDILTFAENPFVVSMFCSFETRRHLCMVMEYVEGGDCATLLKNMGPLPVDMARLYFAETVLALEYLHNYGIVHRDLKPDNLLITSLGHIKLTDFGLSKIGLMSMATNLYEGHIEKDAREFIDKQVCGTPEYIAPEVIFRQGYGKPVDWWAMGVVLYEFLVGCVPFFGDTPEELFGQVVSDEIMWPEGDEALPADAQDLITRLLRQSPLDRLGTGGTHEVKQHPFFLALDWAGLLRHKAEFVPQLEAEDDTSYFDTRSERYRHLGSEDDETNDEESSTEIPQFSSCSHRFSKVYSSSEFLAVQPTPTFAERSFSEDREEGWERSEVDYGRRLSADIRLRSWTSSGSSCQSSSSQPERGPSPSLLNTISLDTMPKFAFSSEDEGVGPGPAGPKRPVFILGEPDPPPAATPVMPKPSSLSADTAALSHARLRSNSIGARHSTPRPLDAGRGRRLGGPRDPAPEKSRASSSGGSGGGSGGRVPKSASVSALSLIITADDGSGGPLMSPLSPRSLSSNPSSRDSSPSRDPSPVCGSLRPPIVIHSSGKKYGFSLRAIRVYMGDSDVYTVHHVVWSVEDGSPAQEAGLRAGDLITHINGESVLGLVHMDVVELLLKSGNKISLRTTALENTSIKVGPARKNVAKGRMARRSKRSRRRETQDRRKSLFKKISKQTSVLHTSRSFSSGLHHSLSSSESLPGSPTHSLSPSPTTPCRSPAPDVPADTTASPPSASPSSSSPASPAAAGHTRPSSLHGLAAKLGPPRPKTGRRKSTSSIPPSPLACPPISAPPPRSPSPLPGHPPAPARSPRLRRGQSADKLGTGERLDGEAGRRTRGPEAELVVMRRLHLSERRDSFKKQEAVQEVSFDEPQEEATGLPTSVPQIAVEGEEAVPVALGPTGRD
UniProt Q02156, sequence (whole entry, looked up): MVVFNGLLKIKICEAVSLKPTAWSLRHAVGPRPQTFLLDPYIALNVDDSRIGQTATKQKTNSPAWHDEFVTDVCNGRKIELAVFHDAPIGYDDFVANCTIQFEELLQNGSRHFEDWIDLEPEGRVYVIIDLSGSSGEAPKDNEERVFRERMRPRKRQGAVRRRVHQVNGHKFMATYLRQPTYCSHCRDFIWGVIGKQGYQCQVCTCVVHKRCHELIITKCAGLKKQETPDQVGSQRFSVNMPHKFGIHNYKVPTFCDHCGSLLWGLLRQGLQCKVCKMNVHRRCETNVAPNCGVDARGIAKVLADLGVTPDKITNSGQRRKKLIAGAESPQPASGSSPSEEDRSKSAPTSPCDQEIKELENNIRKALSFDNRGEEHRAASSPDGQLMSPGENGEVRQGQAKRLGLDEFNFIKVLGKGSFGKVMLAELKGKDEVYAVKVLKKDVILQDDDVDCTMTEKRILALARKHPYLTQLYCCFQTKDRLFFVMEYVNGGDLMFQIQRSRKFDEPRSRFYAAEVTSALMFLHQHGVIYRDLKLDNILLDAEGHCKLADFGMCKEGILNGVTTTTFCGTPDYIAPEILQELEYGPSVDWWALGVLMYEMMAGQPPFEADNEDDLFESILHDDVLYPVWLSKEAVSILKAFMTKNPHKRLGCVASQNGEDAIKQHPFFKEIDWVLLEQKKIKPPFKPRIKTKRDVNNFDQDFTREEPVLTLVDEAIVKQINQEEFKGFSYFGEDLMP
UniProt P10721, sequence (whole entry, unmodified, looked up): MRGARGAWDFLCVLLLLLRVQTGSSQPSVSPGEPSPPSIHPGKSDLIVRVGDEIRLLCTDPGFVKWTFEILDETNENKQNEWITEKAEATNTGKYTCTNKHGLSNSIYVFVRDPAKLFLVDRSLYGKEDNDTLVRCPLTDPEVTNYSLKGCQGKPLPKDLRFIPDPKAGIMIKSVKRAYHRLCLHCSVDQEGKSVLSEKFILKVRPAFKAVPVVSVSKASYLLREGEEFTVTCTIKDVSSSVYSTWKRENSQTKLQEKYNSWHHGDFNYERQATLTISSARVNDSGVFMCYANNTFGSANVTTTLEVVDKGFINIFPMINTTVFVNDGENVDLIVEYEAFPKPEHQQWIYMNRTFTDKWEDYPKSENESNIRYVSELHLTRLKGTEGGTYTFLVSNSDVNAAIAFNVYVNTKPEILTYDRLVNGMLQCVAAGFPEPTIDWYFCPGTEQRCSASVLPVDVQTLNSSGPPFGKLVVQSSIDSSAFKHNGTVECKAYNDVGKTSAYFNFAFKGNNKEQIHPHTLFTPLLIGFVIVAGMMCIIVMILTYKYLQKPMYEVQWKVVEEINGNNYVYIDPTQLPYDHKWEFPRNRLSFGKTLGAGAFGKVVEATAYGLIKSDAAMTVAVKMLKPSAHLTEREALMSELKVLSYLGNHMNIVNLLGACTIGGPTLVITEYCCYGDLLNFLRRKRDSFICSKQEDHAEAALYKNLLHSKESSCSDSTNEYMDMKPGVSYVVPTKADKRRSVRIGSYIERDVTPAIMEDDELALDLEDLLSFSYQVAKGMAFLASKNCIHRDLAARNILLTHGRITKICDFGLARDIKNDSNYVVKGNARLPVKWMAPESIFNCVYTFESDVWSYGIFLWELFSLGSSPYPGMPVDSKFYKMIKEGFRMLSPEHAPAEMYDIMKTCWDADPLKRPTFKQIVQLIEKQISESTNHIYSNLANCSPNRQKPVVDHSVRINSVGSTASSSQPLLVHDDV

Sample 1
Structure (SMILES): CO[C@@H](C)c1c(Nc2ccc([C@@H](N(C)C(=O)C3CCS(=O)(=O)CC3)C(F)(F)F)cc2)cnc2cc(Cl)nn12
Effect on: cell-free assay
Method: competition with immobilised ligand
Concentration: 1 µM
Quantity: remaining binding
PRKG1 (Homo sapiens, UniProt Q13976): 92%
SRPK3 (Homo sapiens, UniProt Q9UPE1): 100%
PRKCE (Homo sapiens, UniProt Q02156): 94%
PI4KB (Homo sapiens, UniProt Q9UBF8): 100%
PIK3C2B (Homo sapiens, UniProt O00750): 89%
CAMK4 (Homo sapiens, UniProt Q16566): 100%
TSSK3 (Homo sapiens, UniProt Q96PN8): 79%
MYLK4 (Homo sapiens, UniProt Q86YV6): 83%
CDK14 (Homo sapiens, UniProt O94921): 99%
EPHA4 (Homo sapiens, UniProt P54764): 100%
BRSK2 (Homo sapiens, UniProt Q8IWQ3): 90%
BRAF (Homo sapiens, UniProt P15056, V600E): 85%
TESK1 (Homo sapiens, UniProt Q15569): 83%
RIPK1 (Homo sapiens, UniProt Q13546): 84%
LRRK2 (Homo sapiens, UniProt Q5S007, G2019S): 100%
WNK3 (Homo sapiens, UniProt Q9BYP7): 84%
ERBB3 (Homo sapiens, UniProt P21860): 100%
DCLK3 (Homo sapiens, UniProt Q9C098): 100%
CSNK1G2 (Homo sapiens, UniProt P78368): 84%
PRKAA2 (Homo sapiens, UniProt P54646): 78%
KIT (Homo sapiens, UniProt P10721, D816H): 100%
eIF-2-alpha kinase GCN2, C-terminal kinase domain (EIF2AK4, Homo sapiens, UniProt Q9P2K8, S808G): 68%

Sample 2
SMILES: Cc1sc(C(=O)NC2COC2)cc1-n1cc(NC(=O)Nc2c(F)cccc2Cl)cn1
Effect on: enzyme activity
Concentration: 10 µM
Quantity: remaining activity
MAP4K2 (Homo sapiens, UniProt Q12851); baseline: untreated control: 88.5%
PLK4 (Homo sapiens, UniProt O00444); baseline: untreated control: 99.4%
PHKG1 (Homo sapiens, UniProt Q16816); baseline: untreated control: 83.2%
TSSK1B (Homo sapiens, UniProt Q9BXA7); baseline: untreated control: 102%
TNIK (Homo sapiens, UniProt Q9UKE5); baseline: untreated control: 93.9%
CSNK2A1 (Homo sapiens, UniProt P68400); baseline: untreated control: 96.3%
WNK1 (Homo sapiens, UniProt Q9H4A3); baseline: untreated control: 87.3%
PRKCA (Homo sapiens, UniProt P17252); baseline: untreated control: 92.5%
MAP3K10 (Homo sapiens, UniProt Q02779); baseline: untreated control: 88.5%
ERN2 (Homo sapiens, UniProt Q76MJ5); inhibitor: 80.7%
MAP4K1 (Homo sapiens, UniProt Q92918); baseline: untreated control: 95.4%
MAP3K19 (Homo sapiens, UniProt Q56UN5); inhibitor: 95.5%
LATS2 (Homo sapiens, UniProt Q9NRM7); baseline: untreated control: 94.4%
MAST3 (Homo sapiens, UniProt O60307); baseline: untreated control: 95.2%

Sample 3
Target: Calcium/calmodulin-dependent protein kinase type II subunit alpha (CAMK2A, Homo sapiens, UniProt Q9UQM7)
UniProt Q9UQM7, sequence (whole entry, looked up): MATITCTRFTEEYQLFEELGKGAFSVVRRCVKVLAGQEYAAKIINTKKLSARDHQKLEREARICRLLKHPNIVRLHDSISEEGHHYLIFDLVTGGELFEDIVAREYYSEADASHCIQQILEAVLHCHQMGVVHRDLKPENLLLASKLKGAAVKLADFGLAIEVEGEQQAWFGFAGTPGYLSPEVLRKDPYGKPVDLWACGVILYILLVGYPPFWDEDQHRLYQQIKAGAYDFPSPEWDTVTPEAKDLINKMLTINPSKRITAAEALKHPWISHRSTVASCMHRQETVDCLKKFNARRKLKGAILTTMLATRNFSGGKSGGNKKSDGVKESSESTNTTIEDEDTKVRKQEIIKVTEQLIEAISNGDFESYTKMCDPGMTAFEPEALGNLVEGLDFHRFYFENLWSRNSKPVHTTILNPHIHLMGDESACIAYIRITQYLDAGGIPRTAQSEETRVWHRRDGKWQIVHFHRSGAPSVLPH
Effect on: enzyme activity
Mode: inhibitor
Concentration: 10 µM
Quantity: inhibition
O[C@@H]1[C@@H](O)[C@@H]2OC[C@@H](O2)[C@H]1O: -41%
CNCC[C@H](Oc1cccc2ccccc12)c1cccs1: 7%
OC[C@H]1O[C@@](CO)(OC[C@@]2(OC[C@@]3(OC[C@@]4(OC[C@@]5(OC[C@@]6(OC[C@@]7(OC[C@@]8(O[C@H]9O[C@H](CO)[C@@H](O)[C@H](O)[C@H]9O)O[C@H](CO)[C@@H](O)[C@@H]8O)O[C@H](CO)[C@@H](O)[C@@H]7O)O[C@H](CO)[C@@H](O)[C@@H]6O)O[C@H](CO)[C@@H](O)[C@@H]5O)O[C@H](CO)[C@@H](O)[C@@H]4O)O[C@H](CO)[C@@H](O)[C@@H]3O)O[C@H](CO)[C@@H](O)[C@@H]2O)[C@@H](O)[C@@H]1O: 8%
CCOC(=O)C[N+]1(C)CC[C@@H](OC(=O)[C@](O)(c2ccccc2)C2CCCC2)C1 (stereo partly shown): -8%
O=C1c2cccc(O)c2C(=O)c2c(O)cc(CO)cc21: -1%
COc1cc([C@@H]2c3cc4c(cc3[C@@H]3OC[C@H]2[C@@H]3CO)OCO4)cc(OC)c1OC: 4%
Oc1ccc(/C=C/c2cc(O)cc(O)c2)cc1: 28%
CC(C)(C)NCC(O)CSc1nc(-c2ccc(C(N)=O)s2)cs1 (stereo not shown): -7%
Cc1cc(O[C@@H]2O[C@H](CO)[C@@H](O)[C@H](O)[C@H]2O)c2c(c1)C(=O)c1cccc(O)c1C2=O: -44%
Clc1cccc(C(c2ccc3[nH]cnc3c2)n2ccnc2)c1 (stereo not shown): -12%
CC1(C)CC[C@]2(C(=O)O[C@@H]3O[C@H](CO)[C@@H](O)[C@H](O)[C@H]3O)CC[C@]3(C)C(=CC[C@@H]4[C@@]5(C)CC[C@H](O[C@@H]6O[C@H](CO)[C@@H](O)[C@H](O[C@@H]7O[C@H](CO)[C@@H](O)[C@H](O)[C@H]7O)[C@H]6O[C@@H]6O[C@H](CO)[C@@H](O)[C@H](O)[C@H]6O)[C@@](C)(CO)[C@@H]5CC[C@]43C)[C@@H]2C1: -14%

Sample 4
Cell line: mouse MPNST tumor cells
Method: high-content nuclear imaging
Measured: cell number
Concentration: 10 µM
Time: 12 h
Notes: mean of 2 replicates
Baseline: plate mean
Direction: higher = more cells
Quantity: nuclei count
C1N2CN3CN1CN(C2)C3: 0.152 z-score
c1ccc(CC2=NCCN2)cc1: -0.0553 z-score and 0.85 z-score
CC(C)c1c(NC(=O)Nc2ccc(Cl)cc2)c(=O)n(-c2ccccc2)n1C: 1.12 z-score
CC1(C)NC(=O)N(c2ccc([N+](=O)[O-])c(C(F)(F)F)c2)C1=O: 0.529 z-score
CN(C(=O)CCCOc1ccc2[nH]c(=O)ccc2c1)C1CCCCC1: -0.0715 z-score
O=C(CCCN1CCC(O)(c2ccc(Br)cc2)CC1)c1ccc(F)cc1: -2.55 z-score
Nc1[nH]nc2nnc(-c3c(-c4ccccc4)nn4ccccc34)cc12: 1.94 z-score
Cc1ncsc1-c1ccc(CNC(=O)[C@@H]2C[C@H](O)CN2C(=O)[C@@H](NC(=O)C2(C#N)CC2)C(C)(C)C)cc1: 0.0966 z-score

A few entries again (sample 1):
RIPK1 (Homo sapiens, UniProt Q13546): 84%
LRRK2 (Homo sapiens, UniProt Q5S007, G2019S): 100%
WNK3 (Homo sapiens, UniProt Q9BYP7): 84%
ERBB3 (Homo sapiens, UniProt P21860): 100%
DCLK3 (Homo sapiens, UniProt Q9C098): 100%
CSNK1G2 (Homo sapiens, UniProt P78368): 84%
